Published values gathered from unrelated publications.
Compare with care: the assays were run in different laboratories. Values joined by “and” are separate records of one study, mostly repeats; a detail may differ.
Read-out: cell growth or viability

| Compound | cell line | test | setting | viability |
| --- | --- | --- | --- | --- |
| COc1cccc(NC(=O)Nc2ccc(Oc3nc4ccccc4n4cnnc34)cc2)c1 | WI-38 | MTT | 50 µM, 24 h | 62.6% |
| CC(=O)c1nn(-c2ccc(C)cc2)/c(=N/N=C(\C)c2ccc(NC(=O)c3ccccc3)cc2)s1 | WI-38 | MTS | 10 µM, 24 h | 4.48% |
| COc1cccc2c1C(=O)c1c(O)c3c(c(O)c1C2=O)C[C@@](O)(C(=O)CO)C[C@@H]3O[C@H]1C[C@H](N)[C@H](O)[C@H](C)O1 | K562 | MTT | 50 µg/mL | 43.6% |
| Cn1cnc2c1c(=O)n(CC(=O)Nc1c(Cl)cccc1Cl)c(=O)n2C | NCI-H1975 | MTT | 100 µg | 32.7% |
| Nc1ccn([C@@H]2O[C@H](CO)[C@@H](O)C2(F)F)c(=O)n1 | MDA-MB-231 | MTT | 0.3125 µg/mL, 48 h | 80.2% |
| N#CC(C(=O)Nc1cccc(C(F)(F)F)c1)=C1Sc2nc3ccc(S(=O)(=O)N4CCCC4)cc3nc2S1 | WI-38 | MTT | 12.5 µM, 24 h | 80.8% |
| COc1cc(N2CCC(N3CCN(C)CC3)CC2)ccc1Nc1ncc(Cl)c(Nc2ccccc2P(C)(C)=O)n1 | Ba/F3 EML4-ALK | CCK-8 | 1 µM, 3 h | 54% and 53% and 56% |
| CCOC(=O)C(C(C)=O)=C1Sc2nc3ccc(S(=O)(=O)N4CCCC4)cc3nc2S1 | WI-38 | MTT | 1.56 µM, 24 h | 100% |
| N[C@H]1C(O)O[C@H](CO)[C@@H](O)[C@@H]1O (stereo partly shown) | Caco-2 | CCK-8 | 1 mM | 100% |
| COc1cccc2c1C(=O)c1c(O)c3c(c(O)c1C2=O)C[C@@](O)(C(=O)CO)C[C@@H]3O[C@H]1C[C@H](N)[C@H](O)[C@H](C)O1 | WI-38 | MTT | 25 µM, 24 h | 21.2% |
| c1cnc2c(c1)ccc1cccnc12 | HepG2 | MTT | 12.5 µg/mL, 24 h | > 80% |
| O=C1CCCCC1=C1Sc2nc3ccc(S(=O)(=O)N4CCCC4)cc3nc2S1 | WI-38 | MTT | 12.5 µM, 24 h | 86.4% |
| CNC(=O)c1cc(Oc2ccc(NC(=O)Nc3ccc(Cl)c(C(F)(F)F)c3)cc2)ccn1 | WI-38 | MTT | 100 µM, 24 h | 13.1% |

Some of these lines once more:
| Compound | cell line | test | setting | viability |
| --- | --- | --- | --- | --- |
| CCOC(=O)C(C(C)=O)=C1Sc2nc3ccc(S(=O)(=O)N4CCCC4)cc3nc2S1 | WI-38 | MTT | 1.56 µM, 24 h | 100% |
